Measured values gathered from unrelated publications.
Lines come from different studies, so protocols differ.
Cell line: HeLa

Structure (SMILES) = C/C1=C\[C@H](C)C[C@H](C)OC(=O)C[C@H](c2ccc(O)cc2)NC(=O)[C@@H](Cc2ccc(O)c(I)c2)N(C)C(=O)[C@H](C)NC(=O)[C@@H](C)C1; test = cell growth or viability; CC50 = 0.3 µg/mL
Structure (SMILES) = O=C1C(=O)c2[nH]cc3c2C(=C1I)NCC3; test = cell growth or viability, MTT; conditions = 72 h; CC50 = 20 µM
Structure (SMILES) = Cc1cc(-c2cc(=O)c3c(O)cc(O)c([C@H]4CCN(C)C[C@H]4O)c3o2)no1; CC50 = 0.645 µM
Structure (SMILES) = O=C1C(NCCc2ccc(O)cc2)=CC2=NCCc3c(Br)[nH]c1c32; test = cell growth or viability, MTT; conditions = 72 h; CC50 = 5 µM
Structure (SMILES) = O=C(NCc1ccccn1)c1cc(-c2ccccc2)n(-c2ccccc2)n1; test = cell growth or viability; CC50 = > 50 µM
Structure (SMILES) = C/C1=C\CC[C@H](C)OC(=O)C[C@H](c2ccc(O)cc2)NC(=O)[C@@H](Cc2ccc(O)c(I)c2)N(C)C(=O)[C@H](C)NC(=O)[C@@H](C)C1; test = cell growth or viability; CC50 = 0.1 µg/mL
Structure (SMILES) = O=C(Nc1cccc(CN2CCc3nc[nH]c3C2)c1)c1cc(-c2ccccc2)n(-c2ccccc2)n1; test = cell growth or viability; CC50 = 32 µM
Structure (SMILES) = Cc1ccc(S(=O)(=O)n2cc3c4c2C(=O)C(NCCc2ccc(O)cc2)=CC4=NCC3)cc1; test = cell growth or viability, MTT; conditions = 72 h; CC50 = 0.78 µM
Structure (SMILES) = O=C(Oc1cc(OC(=O)c2cc(O)c(O)c(O)c2)c2ccccc2c1)c1cc(O)c(O)c(O)c1; test = cell growth or viability, MTT; conditions = 48 h; CC50 = 32.6 µM
Structure (SMILES) = O=C(Nc1ccc(N2CCOCC2)cc1)c1cc(-c2ccccc2)n(-c2ccccc2)n1; test = cell growth or viability; CC50 = > 50 µM

A few entries again:
Structure (SMILES) = O=C1C(=O)c2[nH]cc3c2C(=C1I)NCC3; test = cell growth or viability, MTT; conditions = 72 h; CC50 = 20 µM
